# Experimental data from different studies.
# Numbered parts are unrelated; each lists some results of a single study.

# Sample 1 — method: Spec-seq; form: double-stranded DNA, one strand shown; medium: in vitro; tested at: not given; setting: whole probe, mean of replicates; reference: not given; reading: lower = stronger binding; shared flanks, not repeated: GAGTCGTCTCGTCAGCAC … CCGTAGAGCACTCAGGTC
# Target: POU domain, class 5, transcription factor 1, POU domain (Pou5f1, Mus musculus, UniProt P20263, residues 131-289)
# UniProt P20263, sequence (131-289, looked up): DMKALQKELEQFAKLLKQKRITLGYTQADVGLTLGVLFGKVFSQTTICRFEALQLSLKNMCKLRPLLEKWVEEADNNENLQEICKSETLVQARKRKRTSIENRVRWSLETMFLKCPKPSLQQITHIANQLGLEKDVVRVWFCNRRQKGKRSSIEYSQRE
Oligonucleotide,relative binding energy [ln ratio]
GTTCTAAT,0.763
ATCGTTAT,0.451
CTTTTAAT,0.494
ATTGCAAT,-0.0488
ATACACAT,0.0953
GTGATAAT,0.318
ATGCCGGT,0.833
ATGCCTTC,0.533

# Sample 2 — method: protein-binding microarray; form: double-stranded DNA, one strand shown; medium: in vitro; tested at: not given; reading: higher = stronger binding
# Target: TATA-box-binding protein 1 (TBP1, Arabidopsis thaliana, UniProt P28147, residues 1-200, full length assumed)
# Setting: k-mer, scored over probes, only values ≥0.25
# Residues (chain): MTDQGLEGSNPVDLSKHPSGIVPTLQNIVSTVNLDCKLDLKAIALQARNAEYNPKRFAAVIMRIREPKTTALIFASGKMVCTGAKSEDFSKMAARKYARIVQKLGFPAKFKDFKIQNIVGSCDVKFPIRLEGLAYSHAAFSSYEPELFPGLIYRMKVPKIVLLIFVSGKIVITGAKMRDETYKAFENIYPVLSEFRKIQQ
Oligonucleotide,E-score
GCTAATA,0.284
AGTTTAT,0.351
CTTTAAA,0.41
GAAATTA,0.316
AAATACT,0.292
ATATCGA,0.275
ATGTATA,0.366
ACATAAA,0.273

# Sample 3 — method: RNA Bind-n-Seq; form: RNA; medium: in vitro; tested at: 20 nM; setting: 6-mer, flanks averaged, single round; added: 150 mM LiCl; reference: input library; reading: higher = stronger binding
# Target: TAR DNA-binding protein 43, full length, His tag (TARDBP, Homo sapiens, UniProt Q13148, residues 1-414)
Oligonucleotide,6-mer enrichment (R)
AGUAGG,1.04
AUGCUU,0.992
UGAUGC,0.984
CCGUUA,0.882
UACAAA,0.833
CUAGAG,0.889
GUGCGG,1.32
UACGGC,0.888

# Single results of other studies
SMILES,system,setting,endpoint,value
O=C1CCC(N2Cc3cc(C4CCN(Cc5ccccc5)CC4)ccc3C2=O)C(=O)N1 (stereo not shown),"mouse, ICR, male, plasma","intravenous, 1.0 mg/kg",AUC(0-t),278 ng·h/mL

# Excerpt of the above (sample 1):
Oligonucleotide,relative binding energy [ln ratio]
ATCGTTAT,0.451
CTTTTAAT,0.494
ATTGCAAT,-0.0488
